{"data": "Measured values of several laboratories", "MT-CYB/UQCRFS1": "MT-CYB/UQCRFS1 (Homo sapiens, UniProt P00156+P47985)", "KEAP1 Kelch domain": "Kelch-like ECH-associated protein 1, Kelch domain (KEAP1, Homo sapiens, UniProt Q14145)", "Dehaloperoxidase B ferric": "Dehaloperoxidase B, ferric (Amphitrite ornata, UniProt Q9NAV7)", "note": "“And” joins repeats or separate records; there may be more than shown. Numbers after ± are the reported error."}
{"SMILES": "CN(O)N=Nc1ccc(S(=O)(=O)Nc2nccs2)cc1", "target": "α-glucosidase, rat intestine", "assay": "enzyme activity", "conditions": "60 µg/mL, with: 4-nitrophenyl α-D-glucopyranoside", "quantity": "inhibition", "value": "15 ± 1.38%"}
{"SMILES": "CC(C)C[C@H](NC(=O)[C@@H](N)[C@@H](C)O)C(=O)N[C@@H](CCC(N)=O)C(=O)N1CCC[C@H]1C(=O)N1CCC[C@H]1C(=O)N[C@@H](C)C(=O)N[C@@H](CO)C(=O)N[C@@H](CO)C(=O)N[C@@H](CCCNC(=N)N)C(=O)N[C@H](CCCNC(=N)N)C(=O)N[C@@H](CCCNC(=N)N)C(=O)N[C@@H](Cc1c[nH]cn1)C(=O)N[C@@H](Cc1ccccc1)C(=O)N[C@@H](Cc1c[nH]cn1)C(=O)N[C@@H](Cc1c[nH]cn1)C(=O)N[C@@H](C)C(=O)N[C@@H](CC(C)C)C(=O)N1CCC[C@H]1C(=O)N1CCC[C@H]1C(=O)NCC(=O)N[C@@H](CCCNC(=N)N)C(=O)O", "target": "C3AR1 (Homo sapiens, UniProt Q16581)", "assay": "β-arrestin recruitment, agonist, Tango", "system": "HTLA transfected", "quantity": "Emax", "value": "147 % basal"}
{"SMILES": "CCCN(O)N=Nc1ccc(S(=O)(=O)Nc2onc(C)c2C)cc1", "target": "α-glucosidase, rat intestine", "assay": "enzyme activity", "conditions": "240 µg/mL, with: 4-nitrophenyl α-D-glucopyranoside", "quantity": "inhibition", "value": "52.5 ± 0.01%"}
{"SMILES": "Nc1ncnc2c1ncn2[C@@H]1O[C@H](COP(=O)(O)CP(=O)(O)OP(=O)(O)O)[C@@H](O)[C@H]1O", "target": "P2X purinoceptor 1 (P2RX1, Homo sapiens, UniProt P51575, F188L)", "assay": "saturation binding", "system": "HEK293", "conditions": "103 nM", "quantity": "specific binding", "value": "6110 CCPM and 6710 CCPM"}
{"SMILES": "CCS(=O)(=O)N1CC(CC#N)(n2cc(-c3ncnc4[nH]ccc34)cn2)C1", "target": "ORM1 (Homo sapiens, UniProt P02763)", "assay": "3D fluorescence spectroscopy", "conditions": "4.8 µM", "quantity": "Stokes shift", "value": "54 nm"}
{"SMILES": "[H]/N=C(/N)NCC(=O)O", "target": "SLC6A6 (Homo sapiens, UniProt P31641, G62A)", "assay": "binding, microscale thermophoresis", "conditions": "125 µM, room temperature, with: 50 nM labelled protein", "how to read": "higher = more binding", "quantity": "normalised MST signal", "value": -0.0154}
{"SMILES": "NC(=O)NOCCCCCCCCCCCC[P+](c1ccccc1)(c1ccccc1)c1ccccc1.O=C([O-])C(F)(F)F", "target": "MT-CYB/UQCRFS1", "assay": "complex III-dependent respiration, Seahorse XF96", "system": "HCT-116", "conditions": "5 µM, 24 h", "how to read": "baseline: control", "quantity": "oxygen consumption rate", "value": "32.5 ± 2.39%"}
{"SMILES": "CC[C@@H]1[C@H](F)C(=O)N[C@@H]1COc1nccc2cc(C(N)=O)c(OC)cc12", "target": "MAP3K2 (Homo sapiens, UniProt Q9Y2U5)", "assay": "ATP-site probe binding, ActivX profiling", "system": "THP-1 cell lysate", "conditions": "0.04 mM, Lys1 site", "quantity": "inhibition", "value": "-0.527%"}
{"SMILES": "C=CC(=O)Nc1cccc(CN(C(=O)Nc2cccc(C(F)(F)F)c2)C2CCN(C(C)CCC)CC2)c1 (stereo not shown)", "target": "DCN1-like protein 1 (Homo sapiens, UniProt Q96GG9)", "assay": "covalent binder, LC-TOF mass spectrometry", "conditions": "60 µM, overnight, 4 °C, with: DCN1-like protein 1 30 µM", "quantity": "covalent adduct formation", "value": "0%"}
{"SMILES": "CC[C@H](C)[C@H](NC(C)=O)C(=O)N[C@@H](CC(N)=O)C(=O)N[C@H](C(=O)N[C@@H](CCCNC(=N)N)C(=O)N[C@@H](CCCCN)C(=O)N[C@@H](CCCNC(=N)N)C(=O)N[C@@H](CC(N)=O)C(=O)N[C@H](C(=O)N[C@@H](CCC(=O)O)C(=O)N[C@@H](CO)C(=O)NCC(=O)N[C@@H](CCC(=O)O)C(=O)N[C@@H](CCC(=O)O)C(=O)N[C@@H](CCC(=O)O)C(=O)N[C@@H](CC(C)C)C(=O)N[C@@H](C)C(=O)N[C@@H](CO)C(=O)N[C@@H](CCCCN)C(=O)N[C@@H](CC(C)C)C(=O)N[C@@H](CC(=O)O)C(N)=O)C(C)C)C(C)C", "target": "KEAP1 Kelch domain", "assay": "binding, ITC", "conditions": "pH 7, 298.15 K", "quantity": "ΔH", "value": "-19.78 ± 0.066 kcal/mol"}
{"SMILES": "CCN1CCC[C@H]1CNC(=O)c1c(O)c(Cl)cc(Cl)c1OC", "target": "Probable G-protein coupled receptor 19 (GPR19, Homo sapiens, UniProt Q15760)", "assay": "β-arrestin recruitment, TANGO luminescence, measured: GPR19", "conditions": "concentration not given", "how to read": "baseline: basal luminescence", "quantity": "log2 fold change", "value": 0.163}
{"SMILES": "NC(=O)NOCCCCCCCCCC[P+](c1ccccc1)(c1ccccc1)c1ccccc1.O=C([O-])C(F)(F)F", "target": "MT-CYB/UQCRFS1", "assay": "complex III-dependent respiration, Seahorse XF96", "system": "HCT-116", "conditions": "3 µM, 24 h", "how to read": "baseline: control", "quantity": "oxygen consumption rate", "value": "97.8 ± 5.05%"}
{"SMILES": "CCNC(=O)/C=C/c1cccc(Br)c1", "target": "SLC6A19 (Homo sapiens, UniProt Q695T7)", "assay": "inhibitor, FLIPR membrane potential", "system": "CHO-BC cells", "conditions": "3 µM, unit not given", "how to read": "baseline: no inhibitor", "quantity": "remaining transport activity", "value": 0.241}
{"SMILES": "NC(=O)NOCCCCCCCCCCCCCC[P+](c1ccccc1)(c1ccccc1)c1ccccc1.O=C([O-])C(F)(F)F", "target": "MT-CYB/UQCRFS1", "assay": "complex III-dependent respiration, Seahorse XF96", "system": "HCT-116", "conditions": "20 µM, 24 h", "how to read": "baseline: control", "quantity": "oxygen consumption rate", "value": "1.63 ± 4.97%"}
{"SMILES": "O=C(COP(=O)(O)O)[C@@H](O)[C@H](O)[C@H](O)COP(=O)(O)O", "target": "GAPDH (Homo sapiens, UniProt P04406)", "assay": "thermal proteome profiling", "system": "HepG2 cell lysate", "conditions": "concentration not given, 57 over 37 °C", "how to read": "baseline: compound over control", "quantity": "thermal stability ratio", "value": "3.83 and 3.91 and 3.39"}
{"SMILES": "CSCC[C@H](NC(=O)[C@H](CCC(N)=O)NC(=O)[C@H](CC(C)C)NC(=O)[C@H](CO)NC(=O)[C@H](CCC(N)=O)NC(=O)[C@H](CC(C)C)NC(=O)[C@H](CCC(=O)O)NC(=O)CNC(=O)[C@@H](NC(=O)[C@H](CO)NC(=O)[C@@H]1CCCN1C(=O)[C@H](CC(=O)O)NC(=O)[C@@H](NC(=O)[C@H](CCC(=O)O)NC(=O)[C@H](CCCCN)NC(=O)[C@H](CO)NC(=O)[C@H](CO)NC(=O)[C@H](CC(C)C)NC(C)=O)C(C)C)[C@@H](C)O)C(=O)N1CCC[C@H]1C(=O)N[C@@H](CCC(=O)O)C(N)=O", "target": "KEAP1 Kelch domain", "assay": "binding, ITC", "conditions": "pH 7, 298.15 K", "quantity": "TΔS", "value": "-10.4 kcal/mol"}
{"SMILES": "Cc1cccc(N(O)N=Nc2ccc(S(=O)(=O)Nc3nccs3)cc2)c1", "target": "α-glucosidase, rat intestine", "assay": "enzyme activity", "conditions": "120 µg/mL, with: 4-nitrophenyl α-D-glucopyranoside", "quantity": "inhibition", "value": "17.5 ± 2.16%"}
{"SMILES": "CCCCC[C@H](O)/C=C/[C@H]1C(=O)C[C@H](O)[C@@H]1C/C=C\\CCCC(=O)O", "target": "PTGDR (Homo sapiens, UniProt Q13258, M112A)", "assay": "agonist, ONE-GO BRET", "conditions": "0.002441 µM (2.44 nM)", "how to read": "baseline: wild-type receptor maximum", "quantity": "Gs protein activation", "value": "9.2%"}
{"SMILES": "Cc1cc(=O)[nH]c(SCc2cccc3ccccc23)n1", "target": "Protein lin-28 homolog A (Mus musculus, UniProt Q8K3Y3)", "quantity": "Hill slope", "value": -2.6}
{"SMILES": "Nc1ncnc2c1ncn2[C@@H]1O[C@H](CO[P@](=O)(O)O[P@](=O)(O)O[P@@](=O)(O)S)[C@@H](O)[C@H]1O", "target": "GUK1 (Homo sapiens, UniProt Q16774)", "assay": "binding, isothermal titration calorimetry", "conditions": "molar ratio 3.736, fitted curve", "quantity": "ΔH", "value": "-0.175 kcal/mol"}
{"SMILES": "COc1cc(Nc2ncc3c(n2)-c2ccc(Cl)cc2C(c2c(F)cccc2OC)=NC3)ccc1C(=O)O", "target": "BRAF V599E", "assay": "kinase activity", "conditions": "1 µM", "quantity": "remaining activity", "value": "92%"}
{"SMILES": "COc1ccc2cc1Oc1ccc(cc1)C[C@H]1c3cc(c(OC)cc3CCN1C)Oc1c(OC)c(OC)cc3c1[C@H](C2)N(C)CC3", "target": "PKD2L1 (Homo sapiens, UniProt Q9P0L9, F514A)", "assay": "ion current, patch clamp", "conditions": "concentration not given", "quantity": "tail current", "value": "inhibited"}
{"SMILES": "CCC1(O)CCCN(C(=O)c2ccc(-c3ccc(F)c(NC(=O)CCl)c3)cc2)C1 (stereo not shown)", "target": "DNA dC->dU-editing enzyme APOBEC-3B, C-terminal domain (Homo sapiens, UniProt Q9UH17)", "assay": "covalent modifier, intact protein mass spectrometry, measured: adduct +26104 Da", "conditions": "125 µM, 3 h, 5-fold molar excess", "quantity": "protein adduct", "value": "4.5%"}
{"SMILES": "O=C1Nc2ccccc2C1=O", "target": "Dehaloperoxidase B ferric", "assay": "product, HPLC", "conditions": "5 min, pH 7, 25 °C, enzyme 10 µM, with: indole and H2O2 500 µM each", "quantity": "product formed", "value": "5.05 M"}
{"SMILES": "COc1cc(O)c2c(c1)oc(=O)c1c3cc(O)c(O)cc3oc21", "target": "MAL12 (Saccharomyces cerevisiae S288c, UniProt P53341)", "assay": "fluorescence quenching", "conditions": "concentration not given, 307 K", "quantity": "number of binding sites", "value": 1.05}
{"SMILES": "C=CC(=O)N1CCC(COCC(=O)N2CCN(c3nc(-c4cnc(N)nc4C(F)F)nc(N4CCOC[C@@H]4C)n3)CC2)CC1", "target": "Tyrosine-protein kinase ABL1, phosphorylated (ABL1, Homo sapiens, UniProt P00519, T315I)", "assay": "KINOMEscan", "conditions": "1 µM", "quantity": "remaining binding", "value": "95%"}
{"SMILES": "Oc1ccc(/C=C/c2cc(O)cc(O)c2)cc1", "target": "O-methyltransferase (Sorghum bicolor, UniProt A0A1B6PFV1)", "assay": "isothermal titration calorimetry", "conditions": "concentration not given, apo protein", "quantity": "-TΔS of binding", "value": "3.98 kcal/mol"}
{"SMILES": "O=S(=O)(O)C1CCNCC1", "target": "SLC6A6 (Homo sapiens, UniProt P31641, Y138A)", "assay": "binding, microscale thermophoresis", "conditions": "15.6 µM, room temperature, with: 50 nM labelled protein", "how to read": "higher = more binding", "quantity": "normalised MST signal", "value": -0.0326}
{"SMILES": "C=CC(=O)N1CCC[C@@H](n2nc(-c3ccc(Oc4ccccc4)cc3)c3c(N)ncnc32)C1", "target": "MUSK (Homo sapiens, UniProt O15146)", "conditions": "10 µM", "quantity": "remaining activity", "value": "148%"}
{"SMILES": "O=c1nc(SCc2cc(F)cc(C(F)(F)F)c2)nc(SCc2ccc3sccc3c2)[nH]1", "target": "TOP2A (Homo sapiens, UniProt P11388)", "assay": "ATPase activity", "conditions": "1.95 µM, with: ATP 0.75 mM", "quantity": "ATP hydrolysis rate", "value": "2.58 µM/min and 2.33 µM/min"}
{"SMILES": "O=C1Nc2ccc(Br)cc2C1=O", "target": "Dehaloperoxidase B ferric", "assay": "product, HPLC", "conditions": "with: 5-bromoindole 500 µM, H2O2 250 µM", "quantity": "share of total products", "value": "3%"}
